Measurements from different studies.
A part holds a random share of what one study measured.

Set 1 — technique: aptamer microarray, sandwich; molecule type: DNA with 2'F-ANA; sample: in vitro; concentration: 200 nM; with: Cy3 exosite-II aptamer, 400 nM; reading: higher = stronger binding; measurement: mean fluorescence intensity; strand: GGTTGGTGTGGTTGG
Target: Prothrombin, mature alpha-thrombin (F2, Homo sapiens, UniProt P00734)
Setting: whole 15-mer aptamer, many near background
2'F-ANA at 1 2 3 4 5 6 8 10 13 14 15: 60.6 a.u.
2'F-ANA at 1 3 4 5 7 8 11 12: 140 a.u.
2'F-ANA at 2 3 4 5 8 9 13 15: 58.7 a.u.
2'F-ANA at 1 2 4 7 8 9 10 11 14: 46.4 a.u.
2'F-ANA at 1 2 4 6 7 11 12 15: 182 a.u.
2'F-ANA at 1 2 3 4 6 8 9 11 13 14 15: 234 a.u.
2'F-ANA at 5 6 7 8 10 11 12 14 15: 53.4 a.u.
2'F-ANA at 1 2 5 7 9 12 13: 70.1 a.u.
2'F-ANA at 1 2 4 6 8 10 11 12 13: 56.4 a.u.
2'F-ANA at 1 4 5 8 10 11 14 15: 48.9 a.u.
2'F-ANA at 1 4 6 8 9 10: 49 a.u.
2'F-ANA at 1 4 9 10 12 13: 52.4 a.u.
2'F-ANA at 1 2 3 4 5 6 10 12 13: 49 a.u.
2'F-ANA at 1 2 4 5 6 7 8 9 11 13 14 15: 57.4 a.u.
2'F-ANA at 2 3 5 6 7 9 12 13: 122 a.u.
2'F-ANA at 1 5 7 11 12: 90.7 a.u.
2'F-ANA at 3 4 5 6 7 9 13 14 15: 54.9 a.u.
2'F-ANA at 1 2 3 5 7 9 10 11 12 14 15: 136 a.u.
2'F-ANA at 3 5 6 7 13: 94.8 a.u.
2'F-ANA at 6 7 8 9 10 13 14: 119 a.u.
2'F-ANA at 6 8 12 13: 690 a.u.
2'F-ANA at 2 3 5 8 10 13 14: 56.6 a.u.

Set 2 — technique: protein binding microarray; molecule type: double-stranded DNA, one strand shown; sample: in vitro; concentration: not given; relative to: not given; reading: higher = stronger binding; measurement: E-score
Target: Histone acetyltransferase KAT6A, both winged helices, GST fusion (KAT6A, Homo sapiens, UniProt Q92794, residues 1-181)
Setting: 8-mer, flanks averaged, mean of 2 arrays, mostly near background
Residues (chain): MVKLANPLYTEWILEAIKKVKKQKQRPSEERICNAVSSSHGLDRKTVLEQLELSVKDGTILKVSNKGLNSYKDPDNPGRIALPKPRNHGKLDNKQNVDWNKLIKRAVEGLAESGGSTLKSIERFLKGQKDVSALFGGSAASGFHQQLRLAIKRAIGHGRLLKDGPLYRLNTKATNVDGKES
AGCCGAGC: 0.162
CTTGGCAC: -0.151
TCAACAGA: -0.137
CGAATCCA: -0.054
CCTGAAGA: -0.0726
GCACGGAA: 0.218
CATATCGA: -0.00709
GCTACAGC: -0.00555
GCCTAGAC: 0.0135
CGATTGAC: 0.0982
CAACCTCC: 0.0651
CCATATTC: -0.0388
AGGGCCCC: 0.00687
CGGGACAG: 0.212
GACGTTGA: -0.0493
ACCCGACG: 0.255
AACCACGC: 0.149

Set 3 — technique: RNA Bind-n-Seq; molecule type: RNA; sample: in vitro; concentration: 365 nM; relative to: no-protein control; reading: higher = stronger binding; measurement: RBNS enrichment (R)
Target: RNA binding protein fox-1 homolog 2, RRM domain, GST-SBP tag (RBFOX2, Homo sapiens, UniProt O43251-10, residues 100-194)
Setting: natural RNA segment, single round, ends assumed
Construct (chain): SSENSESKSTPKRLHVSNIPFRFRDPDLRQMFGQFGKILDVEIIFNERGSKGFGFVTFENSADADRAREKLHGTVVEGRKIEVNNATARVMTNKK
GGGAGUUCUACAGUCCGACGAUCUUUACCGAAGACAUGCAUACUCCAUCGAUGUUGUAUUCACAGUGGCUGAGGAAUUCUUGUACGCAGUUUCUUUGGCUUCACGAAGCCGAUUAAAAGACCGUGUGAAAUGAUGGAAUUCUCGGGUGCCAA: 0.267
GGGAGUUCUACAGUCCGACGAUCCCUCAACAAGAGAUAAAAAAAAACUGUUGCUCAUACCCGUAUCUUACUGGGUUUGUUUUUAAUAUUAUUACAAAAUAGAAUGAUCCAGUGUUGCAGAUUUGAUACAACUCUGGAAUUCUCGGGUGCCAA: 0.787
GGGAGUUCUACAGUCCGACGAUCCUGAAGCCAGGCGGGGGUCUGCUGGAGGAUUCCAACAGAGAGUAUUUCCUCCACUGUACAAUGUCACAGACUAUCUCUAUCAUCAUUGCUUUGUGGCUGUUUCUGUUUUUUGGAAUUCUCGGGUGCCAA: 0.387
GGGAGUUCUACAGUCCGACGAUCGGAGACGGAAGAUCUUUUAUUUUCUAUUAUUUAUAACUUCAGACUUGGGCCCCCUGUUCUUUCUUUCCCAUUAACUUGAGUGACCUGUGUGAGAGACAGACAGAUGCCCCUGGAAUUCUCGGGUGCCAA: 0.334
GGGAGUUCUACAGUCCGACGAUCUACCUGUGCAACCACCAGAUUCCAUUUCUACUUCUCUUCCCCAGAGGUCUCAGCAAUGAAUCGGGAAGACACGAAAGGUCUAAGACUAAAUAUCCAAAUUAUAAAUACUAUGGAAUUCUCGGGUGCCAA: 0.314
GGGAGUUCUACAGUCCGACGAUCAGGCCCCCCUCUGCCCUGAUCCCAUGAAGUGACCUUGGGCACUCCCUUUCCCUCCCUGGGCCUCAGUUUCCCCAUCUCCCAAAUGGGAGGAGGAGCCGGAUUGGGUUAUUUGGAAUUCUCGGGUGCCAA: 0.487
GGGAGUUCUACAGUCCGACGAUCGUUUCACCACCAAAUGCCUUUCCAGGCUGCCCUUCCAACACUCAGGAGAGCAUCCAGAUCCCUGGGCAGAGGCUCUACAUUCUUGGCUUUAGAGGUGGUGGCAGCGGCAGUGGAAUUCUCGGGUGCCAA: 0.536
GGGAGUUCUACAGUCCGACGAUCAUUGACUGGGAGCAUGGCCAGGCAUCUCCAGGUUCUAAGCUUUGGGAAGCUACACUUCCAAGUUGCUGUGGCUUCACUGCUAAGAAGAGAGUGAGUGAUGGUCUUGGAAAUGGAAUUCUCGGGUGCCAA: 2.04

Set 4 — technique: protein-binding microarray; molecule type: double-stranded DNA, one strand shown; sample: in vitro; concentration: 2540 nM top; setting: 60-bp whole probe; with: salmon DNA 0.4 mg/ml; relative to: random background probes; reading: higher = stronger binding; measurement: fitted relative affinity; constant ends, left off below: GCCTAGCAC … GTCTTGATTCGCTTGACGCTGCTG
Target: Interferon regulatory factor 3, full length, phosphomimetic (IRF3, Homo sapiens, UniProt Q14653, residues 1-427, S386D/S396D/S398D/S402D/T404D/S405D)
Residues (chain): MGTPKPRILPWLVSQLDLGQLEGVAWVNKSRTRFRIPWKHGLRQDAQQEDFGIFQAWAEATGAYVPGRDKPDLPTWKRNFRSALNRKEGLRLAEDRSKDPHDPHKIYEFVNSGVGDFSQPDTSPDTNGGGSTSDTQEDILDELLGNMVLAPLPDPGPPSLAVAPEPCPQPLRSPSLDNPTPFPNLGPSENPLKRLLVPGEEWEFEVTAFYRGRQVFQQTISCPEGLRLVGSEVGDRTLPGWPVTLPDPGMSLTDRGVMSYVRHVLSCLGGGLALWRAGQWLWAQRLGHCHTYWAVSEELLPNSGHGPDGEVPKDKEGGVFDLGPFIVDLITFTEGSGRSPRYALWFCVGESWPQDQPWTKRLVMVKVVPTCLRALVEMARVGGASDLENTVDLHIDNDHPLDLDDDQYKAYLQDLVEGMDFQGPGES
TTAGATAGCAGACTGGATTAGTGCTAG: -0.639 z-score
TCAAGTCCCGAGAATGGTACTGTGCTA: -0.471 z-score
TCATCTTCATGTTTTTTACTGTGCTAG: 0.908 z-score
TCAGATATAGGATAACGAGCCGTGCTA: 0.0575 z-score
TTAGGTTTGGGACTGGGTTAGTGCTAG: -0.597 z-score
TCAACTGTCTGTTTCCTACTGTGCTAG: 2.89 z-score
GACGAGTTCAGACTGGAGACGTGCTAG: -0.134 z-score
AGAGCCATCAATATCTGCAAGTGCTAG: -0.696 z-score
TTAGGTATCCTACTGCTTGAGTGCTAG: 2.6 z-score
GACAATTTCAGACTGGAGACGTGCTAG: 0.61 z-score
TTAGAACTAAGACTGGATTAGTGCTAG: -0.378 z-score
GGCGGTATCGGTATCGGGACGTGCTAG: 4.59 z-score
TATGTTCCTTATTTAAGACCGTGCTAG: 3.71 z-score
TCAGGCTTCATGTTGCTCACTGTGCTA: -0.542 z-score
GCACCTCTAGACTCTAAATTCGTGCTA: -0.0163 z-score
CAGGAATGGCACCAGCAGGGGTGCTAG: -0.713 z-score
CCTTATTTAAGACCTATGCACGTGCTA: 1.36 z-score
GACGGTCTTCTTCTCCTGACGTGCTAG: 1.04 z-score
GACGTTCTCAGACTGGAGACGTGCTAG: 0.967 z-score
